Results of several laboratories.
Each line is one published result; not all experiments were run side by side. ± marks the error that the study gave. Converted amounts (≈) assume the structure as drawn.

Compound	tested on	test	test system	setting	how to read	quantity	value
CCCCCCCCOCc1cn(CC2=CC[C@@H]3C(C(=O)OC)=CO[C@@H](O)[C@H]23)nn1	SK-N-SH	neuroprotection, MTT		0.6 µM, 24 h, with: 250 µM H2O2		viability	65.9 ± 1.1%
N=C(N)NCCC[C@@H]1NC(=O)[C@H](CCCCNC(=O)CC[C@H](NC(=O)CCOCCOCCOCCOCCNC(=O)CC[C@H](NC(=O)CN2CCN(CC(=O)O)CCN(CC(=O)O)CCN(CC(=O)O)CC2)C(=O)NCCOCCOCCOCCOCCC(=O)N[C@@H](CCC(=O)NCCCC[C@@H]2NC(=O)[C@@H](Cc3ccccc3)NC(=O)[C@H](CC(=O)O)NC(=O)CNC(=O)[C@H](CCCNC(=N)N)NC2=O)C(=O)NCCCC[C@@H]2NC(=O)[C@@H](Cc3ccccc3)NC(=O)[C@H](CC(=O)O)NC(=O)CNC(=O)[C@H](CCCNC(=N)N)NC2=O)C(=O)NCCCC[C@@H]2NC(=O)[C@@H](Cc3ccccc3)NC(=O)[C@H](CC(=O)O)NC(=O)CNC(=O)[C@H](CCCNC(=N)N)NC2=O)NC(=O)[C@@H](Cc2ccccc2)NC(=O)[C@H](CC(=O)O)NC(=O)CNC1=O [indium-111 labelled]			female athymic nude mice, lungs	intravenous, 3 µCi, 1 h, U-87 MG glioma xenograft		tissue uptake	2.47 ± 0.66 %ID/g
COCO[C@H]1[C@H](O)[C@@H](N)[C@@H](O[C@H]2[C@H](O[C@@H]3O[C@H](CO)[C@@H](O[C@H]4O[C@@H](CN)[C@@H](O)[C@H](O)[C@H]4N)[C@H]3O)[C@@H](O)[C@H](N)C[C@@H]2N)O[C@@H]1CO	ribosome with mitochondrial A1555G A site	luciferase translation, cell-free translation				IC50	46.9 ± 4.07 µg/mL
CCCCCCCCC(=O)NCc1ccc(O)c(OC)c1	mAb 4-AT4	antibody binding, indirect competitive ELISA		with: coating antigen hapten 2-OVA		IC50	0.136 µg/mL
COC(=O)C1=CO[C@@H](OC(C)=O)[C@@H]2C(Cn3cc(CCCN4C(=O)c5ccccc5C4=O)nn3)=CC[C@H]12	SK-N-SH	neuroprotection, MTT		0.3 µM, 24 h, with: 250 µM H2O2		viability	61.6 ± 0.5%
N=C(N)NCCC[C@@H]1NC(=O)[C@H](CCCCNC(=O)CNC(=O)CNC(=O)CNC(=O)CC[C@H](NC(=O)CCOCCOCCOCCOCCNC(=O)CC[C@H](NC(=O)CN2CCN(CC(=O)O)CCN(CC(=O)O)CCN(CC(=O)O)CC2)C(=O)NCCOCCOCCOCCOCCC(=O)N[C@@H](CCC(=O)NCC(=O)NCC(=O)NCC(=O)NCCCC[C@@H]2NC(=O)[C@@H](Cc3ccccc3)NC(=O)[C@H](CC(=O)O)NC(=O)CNC(=O)[C@H](CCCNC(=N)N)NC2=O)C(=O)NCC(=O)NCC(=O)NCC(=O)NCCCC[C@@H]2NC(=O)[C@@H](Cc3ccccc3)NC(=O)[C@H](CC(=O)O)NC(=O)CNC(=O)[C@H](CCCNC(=N)N)NC2=O)C(=O)NCC(=O)NCC(=O)NCC(=O)NCCCC[C@@H]2NC(=O)[C@@H](Cc3ccccc3)NC(=O)[C@H](CC(=O)O)NC(=O)CNC(=O)[C@H](CCCNC(=N)N)NC2=O)NC(=O)[C@@H](Cc2ccccc2)NC(=O)[C@H](CC(=O)O)NC(=O)CNC1=O [indium-111 labelled]			athymic nude mouse, female, U-87 MG xenograft, urine	intravenous, dose not given		excreted dose	> 80%
CC1=CC(=O)C[C@@H]2[C@@H](O)C[C@H]3[C@@H]4CC[C@H](O)[C@@]4(C)CC[C@@H]3[C@@]12C	human PBMC	T-cell proliferation, Alamar Blue		48 h, with: phytohemagglutinin-L 7.5 µg/mL		IC50	4.4 ± 0.01 µg/mL
CSC(=NNC(=O)c1ccc([N+](=O)[O-])cc1)SC	Mycobacterium		Smegmatis			MIC	50 µg/mL (≈ 175 µM)
COC(=O)C1=CO[C@@H](O)[C@@H]2C(Cn3cc(C4(O)CCCC4)nn3)=CC[C@H]12	SK-N-SH	neuroprotection, MTT		0.15 µM, 24 h, with: 250 µM H2O2		viability	79.9%
CSCC[C@@H]1NC(=O)[C@H](CCCNC(=N)N)NC(=O)[C@H](Cc2ccc(O)cc2)NC(=O)[C@@H](NC(=O)[C@H](CCCNC(=N)N)NC(=O)[C@H](CCCCN)NC(=O)[C@H](CC(=O)O)NC(=O)[C@H](C)N)CSSC[C@@H](C(=O)N[C@@H](CCCNC(=N)N)C(=O)N[C@@H](Cc2ccc(O)cc2)C(=O)NCC(=O)O)NC(=O)CNC(=O)[C@H](CCCCN)NC(=O)[C@H](CCCCN)NC(=O)[C@@H]2CSSC[C@H](NC1=O)C(=O)N[C@@H](CCC(N)=O)C(=O)N[C@@H](CCCNC(=N)N)C(=O)N[C@@H](Cc1ccc(O)cc1)C(=O)N[C@@H](Cc1c[nH]cn1)C(=O)N[C@@H](CCC(N)=O)C(=O)N[C@@H](CCCNC(=N)N)C(=O)N[C@@H](CCCNC(=N)N)C(=O)N[C@@H](CCC(N)=O)C(=O)N[C@@H](CCCNC(=N)N)C(=O)N[C@@H](CCCNC(=N)N)C(=O)N[C@@H](CCC(N)=O)C(=O)N2	rat Kv1.6	conductance-voltage relation, electrophysiology		concentration not given		V1/2 of activation	12.9 ± 0.9 mV
NC[C@@H]1O[C@H](O[C@H]2[C@@H](O)[C@H](O[C@@H]3[C@@H](O)[C@H](N)C[C@H](N)[C@H]3O[C@H]3O[C@@H]4COCO[C@H]4[C@H](O)[C@H]3N)O[C@@H]2CO)[C@H](N)[C@@H](O)[C@@H]1O	ribosome with mitochondrial A site	luciferase translation, cell-free translation				IC50	325 ± 124 µg/mL
COC(=O)C1=CO[C@@H](O)[C@@H]2C(Cn3cc(-c4ccc(OC)cc4)nn3)=CC[C@H]12	SK-N-SH	neuroprotection, MTT		0.6 µM, 24 h, with: 250 µM H2O2		viability	78.6 ± 1.9%
NC1=NN=Cc2ccccc2[O][V](=[O])[O]1.c1cnc2c(c1)ccc1cccnc12	Mycobacterium tuberculosis PtpB	enzyme activity, inhibitor				IC50	5.12 ± 0.78 µM
COC(=O)C1=CO[C@@H](OC(C)=O)[C@@H]2C(Cn3cc(CCBr)nn3)=CC[C@H]12	SK-N-SH	neuroprotection, MTT		0.075 µM, 24 h, with: 250 µM H2O2		viability	80.9 ± 0.4%
COCOC[C@H]1O[C@H](O[C@H]2[C@H](O[C@@H]3O[C@H](CO)[C@@H](O[C@H]4O[C@@H](CN)[C@@H](O)[C@H](O)[C@H]4N)[C@H]3O)[C@@H](O)[C@H](N)C[C@@H]2N)[C@H](N)[C@@H](O)[C@@H]1O	ribosome with mitochondrial A site	luciferase translation, cell-free translation				IC50	505 ± 107 µg/mL
CC(C)CC(O)(CC(C)C)c1cn(C(=O)N2CCCC2)nn1	mouse T-cells	SILAC proteomics, refers to: ARHGEF2		1 nM, 6 h, unit not given	baseline: DMSO	protein level	1.08 ± 0.07
NC[C@@H]1O[C@H](O[C@H]2[C@@H](O)[C@H](O[C@@H]3[C@@H](O)[C@H](N)C[C@H](N)[C@H]3O[C@H]3O[C@H](CO)[C@@H](OCCO)[C@H](O)[C@H]3N)O[C@@H]2CO)[C@H](N)[C@@H](O)[C@@H]1O	ribosome with mitochondrial A site	luciferase translation, cell-free translation				IC50	87.5 ± 31 µg/mL
O=C1CC(=O)N(c2ccccc2)c2cc(Cl)ccc2N1		electronic von Frey	wild-type mouse, CCI neuropathy	oral, 3, 10 or 30 mg/kg, 7 to 14 days after CCI		mechanical hyperalgesia	decreased

Excerpt of the above:
Compound	tested on	test	test system	setting	how to read	quantity	value
N=C(N)NCCC[C@@H]1NC(=O)[C@H](CCCCNC(=O)CC[C@H](NC(=O)CCOCCOCCOCCOCCNC(=O)CC[C@H](NC(=O)CN2CCN(CC(=O)O)CCN(CC(=O)O)CCN(CC(=O)O)CC2)C(=O)NCCOCCOCCOCCOCCC(=O)N[C@@H](CCC(=O)NCCCC[C@@H]2NC(=O)[C@@H](Cc3ccccc3)NC(=O)[C@H](CC(=O)O)NC(=O)CNC(=O)[C@H](CCCNC(=N)N)NC2=O)C(=O)NCCCC[C@@H]2NC(=O)[C@@H](Cc3ccccc3)NC(=O)[C@H](CC(=O)O)NC(=O)CNC(=O)[C@H](CCCNC(=N)N)NC2=O)C(=O)NCCCC[C@@H]2NC(=O)[C@@H](Cc3ccccc3)NC(=O)[C@H](CC(=O)O)NC(=O)CNC(=O)[C@H](CCCNC(=N)N)NC2=O)NC(=O)[C@@H](Cc2ccccc2)NC(=O)[C@H](CC(=O)O)NC(=O)CNC1=O [indium-111 labelled]			female athymic nude mice, lungs	intravenous, 3 µCi, 1 h, U-87 MG glioma xenograft		tissue uptake	2.47 ± 0.66 %ID/g
COCO[C@H]1[C@H](O)[C@@H](N)[C@@H](O[C@H]2[C@H](O[C@@H]3O[C@H](CO)[C@@H](O[C@H]4O[C@@H](CN)[C@@H](O)[C@H](O)[C@H]4N)[C@H]3O)[C@@H](O)[C@H](N)C[C@@H]2N)O[C@@H]1CO	ribosome with mitochondrial A1555G A site	luciferase translation, cell-free translation				IC50	46.9 ± 4.07 µg/mL
CCCCCCCCC(=O)NCc1ccc(O)c(OC)c1	mAb 4-AT4	antibody binding, indirect competitive ELISA		with: coating antigen hapten 2-OVA		IC50	0.136 µg/mL
